Results collected from several papers.
Parts stem from different laboratories: compare values within a part only.

Set 1 — technique: RNA Bind-n-Seq; form: RNA; medium: in vitro; concentration: 20 nM; setting: 6-mer, flanks averaged, single round; added: 150 mM LiCl; relative to: input library; direction: higher = stronger binding
Target: TAR DNA-binding protein 43, full length, His tag (TARDBP, Homo sapiens, UniProt Q13148, residues 1-414)
`AAGGCG`: “6-mer enrichment (R)” 0.924.
`UCCACU`: “6-mer enrichment (R)” 0.882.
For `GUAUGC`, “6-mer enrichment (R)” read 1.26.
For `UACAGG`, “6-mer enrichment (R)” read 0.893.
`GUACAU`: “6-mer enrichment (R)” 0.884.
Under “6-mer enrichment (R)”, `AUACAA` is recorded as 0.848.
`UUCGCG` — result for “6-mer enrichment (R)”: 0.938.
`AUCAGG`: “6-mer enrichment (R)” 0.874.

Set 2 — technique: protein-binding microarray; form: double-stranded DNA, one strand shown; medium: in vitro; concentration: 250 nM; setting: 60-bp whole probe; added: salmon DNA 0.4 mg/ml; relative to: random background probes; direction: higher = stronger binding; all sequences stand within: GCCTAGCAC … GTCTTGATTCGCTTGACGCTGCTG
Target: Interferon regulatory factor 5, full length, phosphomimetic (IRF5, Homo sapiens, UniProt Q13568-2, residues 1-514, K96S/S451D/S453D/S456D/S462D)
For `GTCGATTCCAGTTTCGAGACGTGCTAG`, the log fluorescence was 5.99 z-score.
`GACGGTTTCCTAATGCTGACGTGCTAG` has a log fluorescence of 0.354 z-score.
The log fluorescence of `TTCGGTATCCTTATCCTTTAGTGCTAG` is reported as 1.08 z-score.
`GACGGTATCGACACTGTGGACGTGCTA` gave a log fluorescence of 1.47 z-score.
For `GGCTCCTCCCCGCTTCTGGAGTGCTAG`, the log fluorescence was -0.572 z-score.
The log fluorescence of `GACGGACTTGGTTTCGGGACGTGCTAG` is reported as 4.43 z-score.
With `TAAGGTATCCTTTTCCTTTAGTGCTAG` the log fluorescence was 0.877 z-score.
With `GACGATTCCGGGACTGGAGACGTGCTA` the log fluorescence was -0.271 z-score.

Set 3 — technique: universal PBM; form: double-stranded DNA, one strand shown; medium: in vitro; concentration: not given; direction: higher = stronger binding
Target: Sal-like protein 4, full length isoform B (SALL4, Homo sapiens, UniProt Q9UJQ4-2, residues 1-616)
Setting: 8-mer, flanks averaged, mean of replicates
Residues (chain): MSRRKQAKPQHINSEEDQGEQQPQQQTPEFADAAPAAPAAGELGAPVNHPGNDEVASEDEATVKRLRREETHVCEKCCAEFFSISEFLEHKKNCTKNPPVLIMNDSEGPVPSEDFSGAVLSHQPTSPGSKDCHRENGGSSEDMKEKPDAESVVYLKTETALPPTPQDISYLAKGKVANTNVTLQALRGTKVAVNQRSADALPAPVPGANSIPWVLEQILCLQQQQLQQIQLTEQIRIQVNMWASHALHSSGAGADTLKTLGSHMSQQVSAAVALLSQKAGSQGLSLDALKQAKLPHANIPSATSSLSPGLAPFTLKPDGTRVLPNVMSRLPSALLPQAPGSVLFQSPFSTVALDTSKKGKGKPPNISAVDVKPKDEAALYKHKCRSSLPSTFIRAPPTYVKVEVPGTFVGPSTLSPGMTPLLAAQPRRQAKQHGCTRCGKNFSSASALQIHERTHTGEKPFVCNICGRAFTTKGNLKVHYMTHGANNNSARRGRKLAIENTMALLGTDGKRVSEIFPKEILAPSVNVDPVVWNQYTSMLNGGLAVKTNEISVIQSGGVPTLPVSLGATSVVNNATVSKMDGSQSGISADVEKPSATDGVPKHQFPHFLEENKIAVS
With `CAGTCATA` the E-score was 0.28.
The E-score of `GTCTGAGA` is reported as -0.0956.
For `GTAGCACA`, the E-score was -0.0705.
With `CGCTACTA` the E-score was 0.0187.
`AGACTCAT` gave an E-score of 0.126.
`AAGGTCAA` has an E-score of 0.0643.
`AACGGATC` gave an E-score of 0.0472.

Mixed results
`PhoQ, residues 284 288 289 292 302 303 SCEHLI` has a fold induction of 1.7 (PhoP, residues 12 14 15 18 19 LWHSL (Escherichia coli, UniProt P23836); Sort-seq, measured: YFP reporter; E. coli; PhoQ-PhoP variant library, added: 10 µM Mg2+; relative to: high Mg2+ state, higher = stronger signaling).
